# Published values collected from several papers.
# Numbers after ± are the reported error.
# CNR2: Cannabinoid receptor 2 (CNR2, Homo sapiens, UniProt P34972)
# Chain of UniProt P21554 (whole entry, unmodified, looked up): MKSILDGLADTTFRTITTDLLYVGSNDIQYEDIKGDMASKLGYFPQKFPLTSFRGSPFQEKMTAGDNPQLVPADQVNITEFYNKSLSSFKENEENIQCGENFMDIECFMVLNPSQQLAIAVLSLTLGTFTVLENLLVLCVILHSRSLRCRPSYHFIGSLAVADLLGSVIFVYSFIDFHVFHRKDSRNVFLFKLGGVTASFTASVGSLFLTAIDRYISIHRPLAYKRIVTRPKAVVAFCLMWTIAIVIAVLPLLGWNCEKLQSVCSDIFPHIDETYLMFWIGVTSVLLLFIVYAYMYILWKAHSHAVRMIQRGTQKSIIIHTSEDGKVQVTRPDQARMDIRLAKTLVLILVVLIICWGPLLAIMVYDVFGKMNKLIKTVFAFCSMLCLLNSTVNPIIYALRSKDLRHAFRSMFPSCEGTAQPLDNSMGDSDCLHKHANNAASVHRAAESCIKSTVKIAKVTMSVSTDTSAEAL
# Chain of UniProt P34972 (whole entry, looked up): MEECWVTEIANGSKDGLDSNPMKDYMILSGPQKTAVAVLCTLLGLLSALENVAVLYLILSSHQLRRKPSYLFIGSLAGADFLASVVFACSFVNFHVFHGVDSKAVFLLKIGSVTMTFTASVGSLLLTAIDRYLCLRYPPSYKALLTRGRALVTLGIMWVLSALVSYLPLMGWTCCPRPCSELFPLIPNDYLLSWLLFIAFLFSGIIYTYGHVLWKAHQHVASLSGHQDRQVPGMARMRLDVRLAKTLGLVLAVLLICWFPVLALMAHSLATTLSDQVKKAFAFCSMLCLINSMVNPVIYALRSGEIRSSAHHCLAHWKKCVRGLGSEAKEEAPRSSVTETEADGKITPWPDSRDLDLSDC
# Chain of UniProt P18507 (whole entry, looked up): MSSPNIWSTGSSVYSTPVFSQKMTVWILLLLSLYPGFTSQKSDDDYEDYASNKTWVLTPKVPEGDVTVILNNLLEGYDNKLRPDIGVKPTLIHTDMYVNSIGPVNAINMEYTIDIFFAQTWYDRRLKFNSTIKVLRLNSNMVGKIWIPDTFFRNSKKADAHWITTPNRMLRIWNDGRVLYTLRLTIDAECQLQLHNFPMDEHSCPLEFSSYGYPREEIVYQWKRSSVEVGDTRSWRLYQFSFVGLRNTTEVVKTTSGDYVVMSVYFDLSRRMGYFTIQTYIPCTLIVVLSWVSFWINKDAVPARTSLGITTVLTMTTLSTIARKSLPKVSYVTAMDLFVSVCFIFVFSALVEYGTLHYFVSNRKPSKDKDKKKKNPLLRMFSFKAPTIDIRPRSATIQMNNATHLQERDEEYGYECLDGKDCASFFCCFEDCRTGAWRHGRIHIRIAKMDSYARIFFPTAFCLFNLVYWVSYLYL
# Chain of UniProt P47870 (whole entry, looked up): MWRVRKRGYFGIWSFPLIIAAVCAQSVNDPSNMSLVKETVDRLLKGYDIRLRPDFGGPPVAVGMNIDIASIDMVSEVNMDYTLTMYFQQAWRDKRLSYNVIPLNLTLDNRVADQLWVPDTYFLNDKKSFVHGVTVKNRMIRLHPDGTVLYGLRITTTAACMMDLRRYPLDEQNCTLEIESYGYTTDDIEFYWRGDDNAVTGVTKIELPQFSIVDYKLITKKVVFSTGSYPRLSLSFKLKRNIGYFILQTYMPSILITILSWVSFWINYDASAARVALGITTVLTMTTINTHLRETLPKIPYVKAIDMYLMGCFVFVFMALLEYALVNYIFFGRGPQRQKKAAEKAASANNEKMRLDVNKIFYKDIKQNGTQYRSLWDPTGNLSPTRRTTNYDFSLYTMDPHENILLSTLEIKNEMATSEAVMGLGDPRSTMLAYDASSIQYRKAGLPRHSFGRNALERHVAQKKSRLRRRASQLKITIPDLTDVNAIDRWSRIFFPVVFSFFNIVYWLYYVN
# Chain of UniProt P02769 (whole entry, looked up): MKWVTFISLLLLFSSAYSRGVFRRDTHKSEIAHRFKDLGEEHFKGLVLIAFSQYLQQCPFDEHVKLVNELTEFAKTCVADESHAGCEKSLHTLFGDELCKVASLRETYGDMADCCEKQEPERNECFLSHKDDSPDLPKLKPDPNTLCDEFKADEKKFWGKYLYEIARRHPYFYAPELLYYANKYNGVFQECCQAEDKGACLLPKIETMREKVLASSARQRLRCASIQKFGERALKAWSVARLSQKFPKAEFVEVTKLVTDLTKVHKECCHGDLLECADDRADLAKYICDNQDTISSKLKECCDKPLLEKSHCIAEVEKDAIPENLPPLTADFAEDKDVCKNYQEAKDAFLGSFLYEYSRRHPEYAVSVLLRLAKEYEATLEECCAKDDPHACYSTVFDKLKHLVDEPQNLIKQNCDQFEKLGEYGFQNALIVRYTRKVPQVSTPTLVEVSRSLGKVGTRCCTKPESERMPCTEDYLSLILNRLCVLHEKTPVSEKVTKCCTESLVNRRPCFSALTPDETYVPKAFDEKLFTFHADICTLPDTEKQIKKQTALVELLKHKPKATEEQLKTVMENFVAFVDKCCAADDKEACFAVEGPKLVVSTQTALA
# Chain of UniProt P14867 (whole entry, looked up): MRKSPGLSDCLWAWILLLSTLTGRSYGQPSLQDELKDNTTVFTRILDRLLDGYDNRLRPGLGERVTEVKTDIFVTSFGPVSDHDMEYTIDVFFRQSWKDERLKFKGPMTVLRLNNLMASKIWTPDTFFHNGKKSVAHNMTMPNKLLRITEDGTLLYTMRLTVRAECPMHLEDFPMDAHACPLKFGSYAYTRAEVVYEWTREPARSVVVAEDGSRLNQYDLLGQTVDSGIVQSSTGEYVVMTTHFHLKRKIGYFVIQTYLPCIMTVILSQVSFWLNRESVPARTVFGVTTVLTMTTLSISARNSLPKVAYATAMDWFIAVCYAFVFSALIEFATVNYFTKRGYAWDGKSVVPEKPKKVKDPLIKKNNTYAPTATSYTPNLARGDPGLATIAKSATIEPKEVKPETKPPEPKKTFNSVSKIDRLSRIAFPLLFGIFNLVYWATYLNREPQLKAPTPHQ
# Chain of UniProt Q9Y6M4 (whole entry, looked up): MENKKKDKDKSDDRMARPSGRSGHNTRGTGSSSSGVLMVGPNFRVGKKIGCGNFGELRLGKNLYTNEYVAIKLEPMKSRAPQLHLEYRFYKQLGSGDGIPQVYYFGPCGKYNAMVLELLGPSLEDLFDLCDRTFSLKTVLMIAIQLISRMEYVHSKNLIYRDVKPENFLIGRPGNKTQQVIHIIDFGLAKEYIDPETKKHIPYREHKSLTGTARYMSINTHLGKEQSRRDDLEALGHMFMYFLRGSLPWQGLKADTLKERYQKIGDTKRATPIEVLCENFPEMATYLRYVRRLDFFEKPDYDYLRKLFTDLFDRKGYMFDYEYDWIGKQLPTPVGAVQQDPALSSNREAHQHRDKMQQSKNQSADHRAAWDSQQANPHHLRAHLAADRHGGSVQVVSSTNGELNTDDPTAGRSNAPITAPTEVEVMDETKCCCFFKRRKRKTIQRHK
# Chain of UniProt I6Y8I5 (whole entry, looked up): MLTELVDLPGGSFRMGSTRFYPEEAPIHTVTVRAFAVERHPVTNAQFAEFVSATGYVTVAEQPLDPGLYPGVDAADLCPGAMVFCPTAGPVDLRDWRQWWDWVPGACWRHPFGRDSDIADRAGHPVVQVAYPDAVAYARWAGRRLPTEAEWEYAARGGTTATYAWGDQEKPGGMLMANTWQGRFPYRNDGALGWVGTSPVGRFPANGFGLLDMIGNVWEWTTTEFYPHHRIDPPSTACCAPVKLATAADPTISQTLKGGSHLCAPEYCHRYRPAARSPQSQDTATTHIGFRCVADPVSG
Structure (SMILES),target or system,assay,system,conditions,scale,endpoint,value
CC(=O)NC(Cc1ccc(Br)c(Cl)c1)C(=O)N[C@@H](C)C(=O)N1CCC[C@H]1C(=O)N1CCC[C@H]1C(=O)N[C@@H](CCC(=O)O)C(=O)N[C@@H](Cc1c[nH]cn1)C(=O)N[C@@H](CO)C(=O)N[C@H](C(=O)N[C@@H](C)C(N)=O)[C@@H](C)OP(=O)(O)O (some centres unmarked),"Casein kinase I isoform gamma-3 (CSNK1G3, Homo sapiens, UniProt Q9Y6M4)",,,10 µM,,inhibition,0.42 ± 0.02%
CCN(Cc1ccccc1)C(=O)CCc1nc(CN2CCN(C(=O)Cc3ccc(OC)c(OC)c3)CC2)no1,"Sodium channel protein type 10 subunit alpha (Scn10a, Rattus norvegicus, UniProt Q62968)","sodium current, whole-cell patch clamp",rat DRG neurons,10 µM,"baseline: control, towards hyperpolarisation",activation curve shift,3.53 mV
CCCCCn1cc(C(=O)c2ccc3ccccc3c2)c2ccccc21,"Cannabinoid receptor 1 (CNR1, Homo sapiens, UniProt P21554)","β-arrestin recruitment, agonist, BRET",HEK-293T,,,Emax,98.4%
CC(C)C[C@H](NC(=O)[C@H](Cc1ccccc1)NC(=O)CNC(=O)CNC(=O)[C@@H](N)Cc1ccc(OC(C(=O)O)c2ccccc2[N+](=O)[O-])cc1)C(=O)O (some centres unmarked),,"K+ current, agonist, photo-uncaging",rat locus coeruleus neurons,,,activation time constant,349 ± 26 ms
NCCCC[C@H](NC(=O)CNC(=O)CNC(=O)[C@H](CCCCN)NC(=O)CNC(=O)CNC(=O)CNC(=O)[C@H](CCCCN)NC(=O)CNC(=O)CNC(=O)[C@H](CCCCN)NC(=O)CNC(=O)CNC(=O)CNC(=O)[C@H](CCCCN)NC(=O)CNC(=O)CNC(=O)[C@H](CCCCN)NC(=O)CNC(=O)CNC(=O)CNC(=O)[C@H](CCCCN)NC(=O)CNC(=O)CNC(=O)[C@H](CCCCN)NC(=O)[C@H](CO)NC(=O)[C@H](Cc1ccc(O)cc1)NC(=O)CNC(=O)CNC(=O)CN)C(=O)NCC(=O)O,,"binding, SPR two-state model",rVλ6Wil fibrils,300 nM,,ka2,7.9e-06 s⁻¹
CCCCCn1cc(C(=O)c2cccc3c2CC(C)(C)C3)c2ccccc21,CNR2,"β-arrestin recruitment, agonist, BRET",HEK-293T,,,Emax,91.8%
CSCC[C@H](NC(=O)[C@H](CCSC)NC(=O)CNC(=O)[C@H](CS)NC(=O)[C@@H](N)CO)C(=O)O,"Formylglycine-generating enzyme (Mycobacterium tuberculosis, UniProt I6Y8I5)","enzyme activity, inhibitor, LC-MS",,"100 µM, 10 min, added: pentapeptide substrate",,inhibition,> 50%
NC(=NN=Cc1cccs1)[S][Ru+]([Cl])([P](c1ccccc1)(c1ccccc1)c1ccccc1)[P](c1ccccc1)(c1ccccc1)c1ccccc1.[Cl-],"Albumin (ALB, Bos taurus, UniProt P02769)",fluorescence quenching,,"added: warfarin, site I marker",,Stern-Volmer constant,1630 M⁻¹
CC(C)[C@H](N)C(=O)N[C@@H](Cc1ccc(O)cc1)C(=O)N[C@@H](CCCCN)C(=O)N[C@H](C(=O)N[C@@H](CCCCN)C(=O)N[C@H](C(=O)N[C@@H](CCCCN)C(=O)N[C@H](C(=O)N[C@@H](CCCCN)C(=O)N[C@H](C(=O)N[C@@H](CCCCN)C(=O)N[C@H](C(=O)N[C@@H](CCCCN)C(=O)N[C@H](C(=O)N[C@@H](CCCCN)C(=O)N[C@H](C(=O)N[C@@H](CCCCN)C(=O)N[C@H](C(=O)O)[C@@H](C)O)C(C)C)[C@@H](C)O)C(C)C)[C@@H](C)O)C(C)C)[C@@H](C)O)C(C)C,,"binding, SPR Langmuir fit",rVλ6Wil fibrils,"300 nM, pH 7.4",,association rate constant,340000 M⁻¹ s⁻¹
CCCCCn1cc(C(=O)c2ccc3c(c2)CC(C)(C)C3)c2ccccc21,CNR2,"β-arrestin 2 recruitment, agonist, BRET",,,baseline: CB2 over CB1,difference in Emax,~30%
C[C@H](NC(=O)[C@H](CCC(N)=O)NC(=O)[C@H](C)NC(=O)[C@H](CCCCN)NC(=O)[C@H](CCC(N)=O)NC(=O)[C@H](C)NC(=O)[C@H](CCCCN)NC(=O)[C@H](CCC(N)=O)NC(=O)[C@H](C)NC(=O)[C@H](CCC(N)=O)NC(=O)[C@H](CCCCN)NC(=O)[C@H](C)NC(=O)[C@H](CCC(N)=O)NC(=O)[C@H](CCCCN)NC(=O)[C@H](C)NC(=O)[C@H](CCC(N)=O)NC(=O)[C@H](C)NC(=O)[C@H](CCCCN)NC(=O)[C@H](CCC(N)=O)NC(=O)[C@H](C)NC(=O)[C@H](CCCCN)NC(=O)[C@H](CO)NC(=O)[C@H](Cc1ccc(O)cc1)NC(=O)CNC(=O)CNC(=O)CN)C(=O)N[C@@H](CCCCN)C(=O)N[C@@H](CCC(N)=O)C(=O)N[C@@H](C)C(=O)N[C@@H](CCCCN)C(=O)N[C@@H](CCC(N)=O)C(=O)O,,"binding, SPR Langmuir fit",rVλ6Wil fibrils,"300 nM, pH 7.4",,association rate constant,120000 M⁻¹ s⁻¹
CCCCCn1cc(C(=O)c2cccc3ccccc23)c2ccccc21,"Cannabinoid receptor 1 (CNR1, Homo sapiens, UniProt P21554, L359V)","Gαi1 engagement, agonist, BRET",,,baseline: reference agonist at wild-type CB1,Emax,127 ± 3.4%
C[C@H](NC(=O)[C@H](CCC(N)=O)NC(=O)[C@H](CCCCN)NC(=O)[C@H](C)NC(=O)[C@@H]1CCCN1C(=O)[C@H](C)NC(=O)[C@H](CCCCN)NC(=O)[C@H](CCC(N)=O)NC(=O)[C@H](C)NC(=O)[C@H](CCCCN)NC(=O)[C@H](CCC(N)=O)NC(=O)[C@@H]1CCCN1C(=O)[C@H](CCC(N)=O)NC(=O)[C@H](CCCCN)NC(=O)[C@H](C)NC(=O)[C@H](CCC(N)=O)NC(=O)[C@H](CCCCN)NC(=O)[C@H](C)NC(=O)[C@@H]1CCCN1C(=O)[C@H](C)NC(=O)[C@H](CCCCN)NC(=O)[C@H](CCC(N)=O)NC(=O)[C@H](C)NC(=O)[C@H](CCCCN)NC(=O)[C@H](CO)NC(=O)[C@H](Cc1ccc(O)cc1)NC(=O)CNC(=O)CNC(=O)CN)C(=O)N[C@@H](CCCCN)C(=O)N[C@@H](CCC(N)=O)C(=O)O,,"binding, SPR two-state model",rVλ6Wil fibrils,300 nM,,ka2,0.0122 s⁻¹
C=C(C)C1C2OC(=O)C1C1(O)CC3OC34C(=O)OC2C14C (centres unmarked),"GABA-A receptor; alpha-1/beta-2/gamma-2 (Homo sapiens, UniProt P14867+P18507+P47870)","GABA-induced current, antagonist, two-electrode voltage clamp",Xenopus oocytes,added: GABA at EC50,,Hill coefficient,0.8 ± 0.11

# For quick reference, copied from above:
Structure (SMILES),target or system,assay,system,conditions,scale,endpoint,value
CCCCCn1cc(C(=O)c2cccc3ccccc23)c2ccccc21,"Cannabinoid receptor 1 (CNR1, Homo sapiens, UniProt P21554, L359V)","Gαi1 engagement, agonist, BRET",,,baseline: reference agonist at wild-type CB1,Emax,127 ± 3.4%
C[C@H](NC(=O)[C@H](CCC(N)=O)NC(=O)[C@H](CCCCN)NC(=O)[C@H](C)NC(=O)[C@@H]1CCCN1C(=O)[C@H](C)NC(=O)[C@H](CCCCN)NC(=O)[C@H](CCC(N)=O)NC(=O)[C@H](C)NC(=O)[C@H](CCCCN)NC(=O)[C@H](CCC(N)=O)NC(=O)[C@@H]1CCCN1C(=O)[C@H](CCC(N)=O)NC(=O)[C@H](CCCCN)NC(=O)[C@H](C)NC(=O)[C@H](CCC(N)=O)NC(=O)[C@H](CCCCN)NC(=O)[C@H](C)NC(=O)[C@@H]1CCCN1C(=O)[C@H](C)NC(=O)[C@H](CCCCN)NC(=O)[C@H](CCC(N)=O)NC(=O)[C@H](C)NC(=O)[C@H](CCCCN)NC(=O)[C@H](CO)NC(=O)[C@H](Cc1ccc(O)cc1)NC(=O)CNC(=O)CNC(=O)CN)C(=O)N[C@@H](CCCCN)C(=O)N[C@@H](CCC(N)=O)C(=O)O,,"binding, SPR two-state model",rVλ6Wil fibrils,300 nM,,ka2,0.0122 s⁻¹
